Measurements of several laboratories.
± gives the spread as reported.
polA D424A: polA fragment D424A (Escherichia coli)
B1: protein (Thermotoga neapolitana, UniProt B9K712); chain MKMLYDLAKKRKTVRRFKKEKPPLEDLIYSLKVANEAPSGMNAQPWRFLIVEDEKLKGQIRRVCERSEKTFYENVRGRLKEWLDEKRFTWRKPFLKEAPYLLLVFSEKSAPYSRESVWLAVGYLLLALEEKGLGSVPYTPPDFREVEKLVNTPSELRLEVILPVGYPDDPKPKYPRNEVIVRYNTF
B2: enzyme (Bacillus subtilis, UniProt P39639); chain MKTKEDMQELYFPTPKLIEWENGVRQYSTVRGDTEVLMSYVPPHTNVEPHQHKEVQIGMVVSGELMMTVGDVTRKMTALESAYIAPPHVPHGARNDTDQEVIAIDIKRLKADETYTSPEDYFLDIFKTRDLLPGMEVTFFVEDWVEIMLAKIPGNGGEMPFHKHRNEQIGICIGGGYDMTVEGCTVEMKFGTAYFCEPREDHGAINRSEKESKSINIFFPPRYNRAKAKKMKADE
B3: PPIP5K2 (Homo sapiens, UniProt O43314); chain MSEAPRFFVGPEDTEINPGNYRHFFHHADEDDEEEDDSPPERQIVVGICSMAKKSKSKPMKEILERISLFKYITVVVFEEEVILNEPVENWPLCDCLISFHSKGFPLDKAVAYAKLRNPFVINDLNMQYLIQDRREVYSILQAEGILLPRYAILNRDPNNPKECNLIEGEDHVEVNGEVFQKPFVEKPVSAEDHNVYIYYPTSAGGGSQRLFRKIGSRSSVYSPESNVRKTGSYIYEEFMPTDGTDVKVYTVGPDYAHAEARKSPALDGKVERDSEGKEVRYPVILNAREKLIAWKVCLAFKQTVCGFDLLRANGQSYVCDVNGFSFVKNSMKYYDDCAKILGNIVMRELAPQFHIPWSIPLEAED
B4: enzyme (Streptomyces platensis, UniProt A0A0A0V031); chain MQHTTIGDVLREHRRSHPGRTALVDGPVRLTWPELDDRVNRLAGSLAASGIGRGDRIMWLGQNSFRVYELIAAAGKLGAMVCVGYWRWAPPEMEFALRDFDPHLVVWQHQEIHETVARTREALGSDDTARWLRHDSAPQDPDGYEAFLAAGGLADPDLDIDPDSPVLVLYTAAMSGRQCGSLLSHTNLIAMATAAAWLGDIDHTTAFLNSGPMFHIGNHQFWGMPTLLMAGKNVIVRRVVAEEVRDLLVAEECTHAFLMPPTVAEIVRLNRDTGHDLSRLRATVAPHLWEGMATTDTSRFTRSGAAAGRGYGQTELSGFAVTAAYGGPAAGNAGRPGPGLTVRVLDTAGRECAVGEAGEICARGTVVHRGYWNRDEVNAHRFRSGWWHTTDLGRREPDGSLTFLGTTTRMLKSAAENIFPAEVENCIEQHPAVREAAVIGVPNTRWAQDVKAVVVLEPDAGVSEQEIIDHCRPRIASYKKPKSVAFAAALPRTVSGARDYDALDKEYGGGGYPGAATLGPGR
B5: TRMT5 E394K (Homo sapiens, UniProt Q32P41); chain FSGRFLKLESHSITESKSLIPVAWTSLTQMLLEAPGIFLLGQRKRFSTMPETETHERETELFSPPSDVRGMTKLDRTAFKKTVNIPVLKVRKEIVSKLMRSLKRAALQRPGIRRVIEDPEDKESRLIMLDPYKIFTHDSFEKAELSVLEQLNVSPQISKYNLELTYEHFKSEEILRAVLPEGQDVTSGFSRIGHIAHLNLRDHQLPFKHLIGQVMIDKNPGITSAVNKINNIDNMYRNFQMEVLSGEQNMMTKVRENNYTYEFDFSKVYWNPRLSTEHSRITELLKPGDVLFDVFAGVGPFAIPVAKKNCTVFANDLNPESHKWLLYNCKLNKVDQKVKVFNLDGKDFLQGPVKEELMQLLGLSKERKPSVHVVMNLPAKAIKFLSAFKWLLDGQPCSSEFLPIVHCYSFSKDANPAEDVRQRAGAVLGISLEACSSVHLVRNVAPNKEMLCITFQIPASVLYKNQTRNPENHEDPPLKRQRTAEAFSDEKTQIVSNT
B6: enzyme (Streptomyces venezuelae, UniProt Q9ZGI2); chain SGADTGAGAGMFRALFRQAVEDDRYGEFLDVLAEASAFRPQFASPEACSERLDPVLLAGGPTDRAEGRAVLVGCTGTAANGGPHEFLRLSTSFQEERDFLAVPLPGYGTGTGTGTALLPADLDTALDAQARAILRAAGDAPVVLLGHSGGALLAHELAFRLERAHGAPPAGIVLVDPYPPGHQEPIEVWSRQLGEGLFAGELEPMSDARLLAMGRYARFLAGPRPGRSSAPVLLVRASEPLGDWQEERGDWRAHWDLPHTVADVPGDHFTMMRDHAPAVAEAVLSWLDAIEGIEGAGK
B7: DTYMK (Homo sapiens, UniProt P23919); chain MAARRGALIVLEGVDRAGKSTQSRKLVEALCAAGHRAELLRFPERSTEIGKLLSSYLQKKSDVEDHSVHLLFSANRWEQVPLIKEKLSQGVTLVVDRYAFSGVAFTGAKENFSLDWCKQPDVGLPKPDLVLFLQLQLADAAKRGAFGHERYENGAFQERALRCFHQLMKDTTLNWKMVDASKSIEAVHEDIRVLSEDAIRTATEKPLGELWK
Sequence of UniProt P10635 (whole entry, looked up): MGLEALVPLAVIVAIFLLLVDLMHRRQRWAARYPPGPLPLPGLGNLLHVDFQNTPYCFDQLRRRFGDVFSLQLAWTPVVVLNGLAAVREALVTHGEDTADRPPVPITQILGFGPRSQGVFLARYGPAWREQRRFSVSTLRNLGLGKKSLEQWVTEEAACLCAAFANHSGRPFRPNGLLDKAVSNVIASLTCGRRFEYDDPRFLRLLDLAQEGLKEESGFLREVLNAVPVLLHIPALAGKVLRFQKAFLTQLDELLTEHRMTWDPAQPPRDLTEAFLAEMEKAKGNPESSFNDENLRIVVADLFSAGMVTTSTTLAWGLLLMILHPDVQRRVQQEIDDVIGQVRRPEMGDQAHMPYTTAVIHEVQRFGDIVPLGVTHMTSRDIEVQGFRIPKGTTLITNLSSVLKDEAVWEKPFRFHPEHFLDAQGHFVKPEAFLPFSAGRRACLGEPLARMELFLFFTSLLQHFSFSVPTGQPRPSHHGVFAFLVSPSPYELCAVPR
Sequence of UniProt P27487 (whole entry, looked up): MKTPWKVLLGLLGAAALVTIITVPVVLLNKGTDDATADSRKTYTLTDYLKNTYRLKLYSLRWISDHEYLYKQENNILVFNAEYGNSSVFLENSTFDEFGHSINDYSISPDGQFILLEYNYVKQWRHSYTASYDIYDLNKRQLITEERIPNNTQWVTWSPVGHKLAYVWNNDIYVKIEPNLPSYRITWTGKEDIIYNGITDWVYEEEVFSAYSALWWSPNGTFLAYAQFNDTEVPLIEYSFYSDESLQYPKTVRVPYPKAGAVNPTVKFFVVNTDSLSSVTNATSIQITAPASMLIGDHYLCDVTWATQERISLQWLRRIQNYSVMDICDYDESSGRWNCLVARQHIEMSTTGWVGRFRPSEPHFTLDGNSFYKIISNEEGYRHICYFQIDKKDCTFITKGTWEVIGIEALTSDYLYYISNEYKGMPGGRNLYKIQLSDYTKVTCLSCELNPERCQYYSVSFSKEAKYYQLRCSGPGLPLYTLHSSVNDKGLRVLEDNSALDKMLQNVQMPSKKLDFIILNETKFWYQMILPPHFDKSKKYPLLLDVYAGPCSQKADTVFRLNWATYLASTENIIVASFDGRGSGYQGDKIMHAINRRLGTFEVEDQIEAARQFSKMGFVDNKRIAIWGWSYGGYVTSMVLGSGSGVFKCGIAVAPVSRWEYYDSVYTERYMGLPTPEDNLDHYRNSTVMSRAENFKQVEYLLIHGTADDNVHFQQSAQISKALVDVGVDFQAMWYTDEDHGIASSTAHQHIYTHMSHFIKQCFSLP
Sequence of UniProt Q94JM3 (whole entry, unmodified, looked up): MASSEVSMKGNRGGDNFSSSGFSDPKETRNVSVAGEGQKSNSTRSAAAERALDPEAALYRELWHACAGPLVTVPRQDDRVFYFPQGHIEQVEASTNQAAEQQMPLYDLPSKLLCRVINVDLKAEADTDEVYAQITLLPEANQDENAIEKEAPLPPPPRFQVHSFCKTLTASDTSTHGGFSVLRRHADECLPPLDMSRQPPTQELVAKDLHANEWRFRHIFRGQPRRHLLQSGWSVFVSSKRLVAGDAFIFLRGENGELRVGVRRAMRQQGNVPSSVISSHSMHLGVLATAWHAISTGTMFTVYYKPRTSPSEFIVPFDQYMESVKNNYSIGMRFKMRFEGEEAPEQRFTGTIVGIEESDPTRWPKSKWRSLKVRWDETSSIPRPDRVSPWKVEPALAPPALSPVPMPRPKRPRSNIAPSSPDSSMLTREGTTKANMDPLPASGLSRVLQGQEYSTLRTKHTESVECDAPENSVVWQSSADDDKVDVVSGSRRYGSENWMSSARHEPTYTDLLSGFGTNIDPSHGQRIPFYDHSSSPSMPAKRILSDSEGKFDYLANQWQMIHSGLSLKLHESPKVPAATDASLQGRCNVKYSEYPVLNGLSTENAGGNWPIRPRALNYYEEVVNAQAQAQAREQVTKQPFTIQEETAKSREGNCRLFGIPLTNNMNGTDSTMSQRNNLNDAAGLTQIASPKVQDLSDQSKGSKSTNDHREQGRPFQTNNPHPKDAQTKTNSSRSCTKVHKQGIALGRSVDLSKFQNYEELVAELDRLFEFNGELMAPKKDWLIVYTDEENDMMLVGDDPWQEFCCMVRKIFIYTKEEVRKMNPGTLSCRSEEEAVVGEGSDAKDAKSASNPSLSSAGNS

CCTCTTCCCTCACCTCTTCTTGACCTCATTCGTACCCATTGACCTTCGCAACCACCTGCGAAGGTCAATGGGTACGAATGAGGT (hairpin DNA; hairpin, 5' overhang, 3' ddT)  Kd (polA D424A; SPR; added: dGTP 100 µM): 16 ± 8 nM
B1 (protein)  kcat (N[C@@H](Cc1ccc(O)c(Cl)c1)C(=O)O; steady-state kinetics; pH 7.4, 60 °C): 0.0483 ± 0.01 s⁻¹
B2 (enzyme)  kcat (O=C(O)C(=O)C[C@H]1C=C[C@H](O)C=C1; steady-state kinetics; pH 8.1, apparent): 24.5 s⁻¹
GACAUGGUCCGGUAGUUCAGUUGGUUAGAAUGCCUGCCUGUCACGCAGGAGGUCGCGGGUUCGAGUCCCGUCCGGACCG (tRNA (Bacillus subtilis); 5'-GMPS, tRNA fold)  relative affinity (PRORP1 77-572 Y140F (Arabidopsis thaliana, UniProt Q66GI4); fluorescence anisotropy; folded RNA; NaCl 1 M, extrapolated; relative to: wild-type target): 6.5 fold
B3 (PPIP5K2)  kcat (O=P(O)(O)O[C@@H]1[C@@H](OP(=O)(O)O)[C@H](OP(=O)(O)OP(=O)(O)O)[C@@H](OP(=O)(O)O)[C@H](OP(=O)(O)OP(=O)(O)O)[C@@H]1OP(=O)(O)O; steady-state kinetics): 0.19 ± 0.02 s⁻¹
B4 (enzyme)  kcat (C[C@@]12CCC[C@@](C)(C(=O)OP(=O)(O)OC[C@H]3O[C@@H](n4cnc5c(N)ncnc54)[C@H](O)[C@@H]3O)[C@H]1C[C@@H](O)[C@]13C[C@H]4C[C@H](O[C@@]4(C)C1)[C@@H]23; steady-state kinetics; pH 7.8, 25 °C): 22 s⁻¹
B5 (TRMT5 E394K)  kcat (C[S+](CC[C@H](N)C(=O)O)C[C@H]1O[C@@H](n2cnc3c(N)ncnc32)[C@H](O)[C@@H]1O; steady-state kinetics; 37 °C): 0.023 ± 0.003 s⁻¹
B6 (enzyme)  kcat (CC[C@@H](O)[C@H](C)/C=C/C(=O)[C@H](C)C[C@H](C)[C@H](OC)[C@@H](C)C(=O)SCCNC(C)=O; steady-state kinetics): 0.193 ± 0.004 s⁻¹
B7 (DTYMK)  kcat (Cc1cn([C@@H]2C[C@@H](O)[C@H](COP(=O)(O)O)O2)c(=O)[nH]c1=O; steady-state kinetics; added: ATP 2 mM, Mg2+ 2 mM): 0.34 ± 0.03 s⁻¹
AGTCTTTTTGGTCTCTGGTCGGTCGACAATCCGTGTG (dsDNA; 5-C6-amino-dT labels)  K1/2 (ARF2 1-859 K737S (Arabidopsis thaliana, UniProt Q94JM3); smFRET titration; double-stranded DNA, one strand shown): 90.5 nM
CCTCTTCCCTCACCTCTTCTTGACCTCATTCGTACCCATTGACCTTCGCAACCACCTGCGAAGGTCAATGGGTACGAATGAGGT (hairpin DNA; hairpin, 5' overhang, dG-C8-FABP 22, 3' ddT)  Kd (polA D424A; SPR; added: dGTP 100 µM): 0.66 ± 0.08 nM
CYP2D6 (Homo sapiens, UniProt P10635)  kcat (CC(C)(C)NC(CO)c1cc(Cl)c(N)c(C(F)(F)F)c1; steady-state kinetics; pH 7.4, 37 °C, not purified): 0.00947 ± 0.000544 s⁻¹
DPP4 (Homo sapiens, UniProt P27487)  kcat (NCC(=O)N1CCC[C@H]1C(=O)Nc1ccc([N+](=O)[O-])cc1; steady-state kinetics; pH 7.5): 17.6 s⁻¹

For quick reference, copied from above:
GACAUGGUCCGGUAGUUCAGUUGGUUAGAAUGCCUGCCUGUCACGCAGGAGGUCGCGGGUUCGAGUCCCGUCCGGACCG (tRNA (Bacillus subtilis); 5'-GMPS, tRNA fold)  relative affinity (PRORP1 77-572 Y140F (Arabidopsis thaliana, UniProt Q66GI4); fluorescence anisotropy; folded RNA; NaCl 1 M, extrapolated; relative to: wild-type target): 6.5 fold
